Published values collected from several papers.
Compare with care: the assays were run in different laboratories. Values joined by “and” are separate records of one study, mostly repeats; a detail may differ.
Target: Fibroblast growth factor receptor 3 (FGFR3, Homo sapiens, UniProt P22607)

Structure (SMILES) | test | conditions | scale | measurement | value
C=CC(=O)Nc1cccc(-c2cnc3[nH]cc(C(=O)NC(C)(C)C)c3n2)c1 | enzyme activity, inhibitor | 0.1 µM | – | inhibition | 20%
CCn1cc(C(=O)O)c(=O)c2c(N)c(F)c(NC3CCCCC3)cc21 | kinase activity | 0.1 µM, with: ATP at Km | – | inhibition | 0.4%
CNC(=O)C[C@H](Cc1ccc(C#N)cc1)NC(=O)c1cc(-c2ccc(CN[C@H](C)c3ccc(C)cc3)o2)ccc1Cl | enzyme activity, inhibitor | 1 µM | – | activity vs control | 91%
CN1CCN(C(=O)c2ccc(-c3ccc4c(c3)/C(=C/c3ccc(N5CCOCC5)cc3)C(=O)N4)cc2)CC1 | calculated from IC50 | – | – | binding free energy | -11.2 kcal/mol
CN1CCN(Cc2ccc(-c3ccc(CO[C@H]4CCC[C@@H]4NC(=O)c4cc(-c5cnn(C)c5)cnc4N)cc3)cc2)CC1 | enzyme activity, inhibitor | 0.1 µM | – | inhibition | 5%
NC(=O)C[C@H]1CCc2sc3ncnc(O[C@H]4CC[C@H](N5CCOCC5)CC4)c3c21 | enzyme activity, inhibitor | 10 µM | – | inhibition | 15%
C=C1CCCCCCCCCC(CO)C1=O (stereo not drawn) | cell-free assay | 10 µM | – | remaining signal | 100%
O=C(Cc1ccc(OCc2ccccc2)cc1)NC1(C(=O)O)CCN(C(=O)c2ccc(-c3cccc(Cl)c3)cc2)CC1 | enzyme activity, inhibitor | 10 µM | – | activity vs control | 119%
COc1ccc(C(=O)/C=C/c2ccccc2-c2c[nH]c3ccc(C#N)cc23)c(O)c1 | enzyme activity, inhibitor | 20 µM | – | inhibition | 0%
COCC12C(=O)NC3C4(C(OC)CC1O)C1CC5(O)C(OC)C(O)C(OC(C)=O)(C1C5OC(=O)c1ccccc1)C3(O)C(OC)C24 (stereo not drawn) | kinase activity, inhibitor, ProQinase kinase profiling | 25 µM | baseline: control | remaining activity | 99% and 92%
C=CC(=O)N1Cc2nc(-c3cc(-c4cc(Cl)cnc4Cl)c(F)cc3F)n(-c3ccncn3)c2C1 | cell-free assay | 1 µM | – | inhibition | 7.4%
Nc1ncc(-c2cc(-c3cnn(CC(F)(F)F)c3)ncc2F)nc1C(=O)NC1CNCC(F)C1 (stereo not drawn) | enzyme activity | 1 µM | baseline: DMSO control | remaining activity | 93.5%

Excerpt of the above:
Structure (SMILES) | test | conditions | scale | measurement | value
NC(=O)C[C@H]1CCc2sc3ncnc(O[C@H]4CC[C@H](N5CCOCC5)CC4)c3c21 | enzyme activity, inhibitor | 10 µM | – | inhibition | 15%
C=C1CCCCCCCCCC(CO)C1=O (stereo not drawn) | cell-free assay | 10 µM | – | remaining signal | 100%
